Measured values pooled from the literature.
A part holds a random share of what one study measured.

Study 1
Target: Prothrombin, mature alpha-thrombin (F2, Homo sapiens, UniProt P00734)
Technique: aptamer microarray, sandwich
Molecule type: DNA with 2'F-ANA
Matrix: in vitro
Concentration: 200 nM
Setting: whole 15-mer aptamer, many near background
Together with: Cy3 exosite-II aptamer, 400 nM
Reading: higher = stronger binding
Endpoint: mean fluorescence intensity
Sequence: GGTTGGTGTGGTTGG
2'F-ANA at 1 5 9 10 11 12 13 15: 47.9 a.u.
2'F-ANA at 4 6 8 11 13: 208 a.u.
2'F-ANA at 1 4 8 12 13 14: 63.9 a.u.
2'F-ANA at 1 2 3 7 12 14: 113 a.u.
2'F-ANA at 4 5 6 8 9 12 13: 91.1 a.u.

Study 2
Target: Histone acetyltransferase KAT6A, winged helix 2, GST fusion (KAT6A, Homo sapiens, UniProt Q92794, residues 85-181)
Technique: protein binding microarray
Molecule type: double-stranded DNA, one strand shown
Matrix: in vitro
Concentration: not given
Setting: 8-mer, flanks averaged, mean of 2 arrays, mostly near background
Relative to: not given
Reading: higher = stronger binding
Endpoint: E-score
Construct (chain): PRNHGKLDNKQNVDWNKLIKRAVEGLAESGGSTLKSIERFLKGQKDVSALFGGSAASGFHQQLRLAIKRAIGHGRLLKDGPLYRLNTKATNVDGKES
GCTTCAAA: 0.0955
ACCGACGC: 0.0833
GCGTATAA: 0.118
GAAGCATC: 0.0534
ACATGGTA: -0.266
AGAACCAC: -0.0433
GACTAACA: -0.0801
CGTCGGGA: 0.103

Study 3
Target: Sal-like protein 4, full length isoform B (SALL4, Homo sapiens, UniProt Q9UJQ4-2, residues 1-616)
Technique: universal PBM
Molecule type: double-stranded DNA, one strand shown
Matrix: in vitro
Concentration: not given
Setting: 8-mer, flanks averaged, mean of replicates
Reading: higher = stronger binding
Endpoint: E-score
Target sequence (chain): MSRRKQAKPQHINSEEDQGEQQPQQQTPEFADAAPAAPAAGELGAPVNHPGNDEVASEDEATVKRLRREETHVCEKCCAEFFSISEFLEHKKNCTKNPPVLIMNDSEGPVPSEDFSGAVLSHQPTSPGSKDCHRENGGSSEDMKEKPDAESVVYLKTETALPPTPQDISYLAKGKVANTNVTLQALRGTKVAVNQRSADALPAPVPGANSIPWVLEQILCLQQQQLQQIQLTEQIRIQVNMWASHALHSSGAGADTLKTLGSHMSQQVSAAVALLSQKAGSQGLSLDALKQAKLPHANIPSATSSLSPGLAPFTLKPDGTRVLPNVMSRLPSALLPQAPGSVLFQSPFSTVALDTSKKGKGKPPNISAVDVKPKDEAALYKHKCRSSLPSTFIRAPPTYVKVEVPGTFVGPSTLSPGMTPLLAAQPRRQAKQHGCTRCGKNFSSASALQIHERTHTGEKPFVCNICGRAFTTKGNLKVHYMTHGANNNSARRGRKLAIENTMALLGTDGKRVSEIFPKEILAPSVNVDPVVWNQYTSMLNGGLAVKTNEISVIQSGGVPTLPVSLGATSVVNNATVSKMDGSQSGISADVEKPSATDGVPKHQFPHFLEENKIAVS
AAGGGATA: 0.177
ACGCGAGA: -0.0742
GACAACTA: 0.11
GGTCGCCA: -0.336
GCACCAAC: -0.289
CAGCATGG: -0.209

Mixed results
PhoQ, residues 284 288 289 292 302 303 ASVMEA  fold induction (PhoP, residues 12 14 15 18 19 LYFRQ (Escherichia coli, UniProt P23836); Sort-seq, refers to: YFP reporter; E. coli; PhoQ-PhoP variant library, together with: 10 µM Mg2+; relative to: high Mg2+ state, higher = stronger signaling): 5.51

Some of these lines once more (study 3):
AAGGGATA: 0.177
ACGCGAGA: -0.0742
GACAACTA: 0.11
